{"data": "Measured values pooled from the literature", "note": "A part holds a random share of what one study measured.", "UniProt Q9H0K1, sequence (whole entry, looked up)": "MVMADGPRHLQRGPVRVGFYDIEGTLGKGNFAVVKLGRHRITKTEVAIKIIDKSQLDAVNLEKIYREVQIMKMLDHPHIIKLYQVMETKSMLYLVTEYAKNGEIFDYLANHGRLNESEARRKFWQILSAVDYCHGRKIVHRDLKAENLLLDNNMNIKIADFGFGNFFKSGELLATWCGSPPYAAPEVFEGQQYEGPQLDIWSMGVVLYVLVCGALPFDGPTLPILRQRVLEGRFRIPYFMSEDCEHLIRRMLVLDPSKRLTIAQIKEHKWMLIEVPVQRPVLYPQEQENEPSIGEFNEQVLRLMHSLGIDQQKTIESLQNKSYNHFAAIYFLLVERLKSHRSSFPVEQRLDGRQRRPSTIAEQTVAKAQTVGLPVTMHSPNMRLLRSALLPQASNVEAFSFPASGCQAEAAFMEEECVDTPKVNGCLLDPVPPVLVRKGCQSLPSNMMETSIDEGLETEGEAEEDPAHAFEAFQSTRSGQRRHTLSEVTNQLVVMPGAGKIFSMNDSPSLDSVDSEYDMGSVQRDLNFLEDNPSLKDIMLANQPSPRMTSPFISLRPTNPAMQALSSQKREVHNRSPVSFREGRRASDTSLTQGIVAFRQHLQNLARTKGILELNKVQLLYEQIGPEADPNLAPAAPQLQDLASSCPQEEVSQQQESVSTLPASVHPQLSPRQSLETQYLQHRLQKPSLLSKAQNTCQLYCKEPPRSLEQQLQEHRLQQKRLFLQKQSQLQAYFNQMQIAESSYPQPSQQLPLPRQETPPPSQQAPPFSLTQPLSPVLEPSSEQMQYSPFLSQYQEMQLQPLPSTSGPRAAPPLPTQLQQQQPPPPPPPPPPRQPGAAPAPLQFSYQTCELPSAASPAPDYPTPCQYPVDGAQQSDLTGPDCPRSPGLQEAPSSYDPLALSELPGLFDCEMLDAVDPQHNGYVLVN", "UniProt O75716, sequence (whole entry, looked up)": "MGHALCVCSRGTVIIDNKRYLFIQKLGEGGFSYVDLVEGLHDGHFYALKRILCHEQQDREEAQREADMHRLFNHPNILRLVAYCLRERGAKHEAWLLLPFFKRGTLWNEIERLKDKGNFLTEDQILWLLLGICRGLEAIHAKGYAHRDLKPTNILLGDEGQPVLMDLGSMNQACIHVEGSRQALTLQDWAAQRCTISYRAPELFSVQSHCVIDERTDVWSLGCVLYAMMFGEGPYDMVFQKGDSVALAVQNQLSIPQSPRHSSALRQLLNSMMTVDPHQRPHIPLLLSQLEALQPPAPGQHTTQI", "UniProt P48730, sequence (whole entry, looked up)": "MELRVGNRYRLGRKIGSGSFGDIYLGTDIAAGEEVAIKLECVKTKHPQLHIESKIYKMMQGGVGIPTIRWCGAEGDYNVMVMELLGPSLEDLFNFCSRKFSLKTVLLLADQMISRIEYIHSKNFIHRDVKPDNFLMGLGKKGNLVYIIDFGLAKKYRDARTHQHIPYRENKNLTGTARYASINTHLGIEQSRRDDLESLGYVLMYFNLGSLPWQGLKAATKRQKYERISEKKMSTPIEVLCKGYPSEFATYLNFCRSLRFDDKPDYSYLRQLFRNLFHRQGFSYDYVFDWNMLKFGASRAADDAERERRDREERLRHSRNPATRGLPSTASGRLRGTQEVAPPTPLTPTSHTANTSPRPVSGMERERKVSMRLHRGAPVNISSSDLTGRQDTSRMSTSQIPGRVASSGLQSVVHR"}
{"data": "Set 1", "target": "Prothrombin, mature alpha-thrombin (F2, Homo sapiens, UniProt P00734)", "technique": "aptamer microarray, sandwich", "form": "DNA with 2'F-ANA", "medium": "in vitro", "tested at": "200 nM", "notes": "whole 15-mer aptamer, many near background", "added": "Cy3 exosite-II aptamer, 400 nM", "direction": "higher = stronger binding", "strand": "GGTTGGTGTGGTTGG"}
{"Modification": "2'F-ANA at 1 3 4 8 10 11 13 14", "mean fluorescence intensity [a.u.]": 51}
{"Modification": "2'F-ANA at 1 3 4 5 10 11 13 14", "mean fluorescence intensity [a.u.]": 46.7}
{"Modification": "2'F-ANA at 2 3 6 7 9 11 13 14 15", "mean fluorescence intensity [a.u.]": 250}
{"Modification": "2'F-ANA at 2 5 8 10 11 12 13 14", "mean fluorescence intensity [a.u.]": 44.8}
{"Modification": "2'F-ANA at 1 2 4 5 8 9 10 12 13 15", "mean fluorescence intensity [a.u.]": 52.9}
{"Modification": "2'F-ANA at 2 4 7 8 10 11", "mean fluorescence intensity [a.u.]": 96.8}
{"Modification": "2'F-ANA at 3 4 7 9 12 13", "mean fluorescence intensity [a.u.]": 667}
{"Modification": "2'F-ANA at 4 5 6 8 11 13 15", "mean fluorescence intensity [a.u.]": 52.2}
{"data": "Set 2", "target": "RING finger protein unkempt homolog, zinc fingers 1-6, SBP tag (UNK, Homo sapiens, UniProt Q9C0B0, residues 30-357)", "technique": "RNA Bind-n-Seq", "form": "RNA", "medium": "in vitro", "tested at": "100 nM", "notes": "RNA with constant flanks, vertebrate orthologous sites, ends assumed", "relative to": "input RNA pool", "direction": "higher = stronger binding", "constant ends, left off below": "GGGAGUUCUACAGUCCGACGAUC … CAACAGAGGAUUGAGCAUCA", "UniProt Q9C0B0, sequence (30-357, looked up)": "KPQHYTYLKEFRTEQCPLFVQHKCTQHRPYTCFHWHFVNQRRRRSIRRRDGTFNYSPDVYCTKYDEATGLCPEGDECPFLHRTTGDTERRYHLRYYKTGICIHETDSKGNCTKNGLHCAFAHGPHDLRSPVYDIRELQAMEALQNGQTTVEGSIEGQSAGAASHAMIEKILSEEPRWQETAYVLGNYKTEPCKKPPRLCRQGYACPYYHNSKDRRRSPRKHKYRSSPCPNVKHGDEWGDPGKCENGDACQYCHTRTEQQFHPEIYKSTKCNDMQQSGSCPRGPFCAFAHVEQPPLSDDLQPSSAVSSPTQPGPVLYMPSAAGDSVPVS"}
{"Strand": "UAUCUUUAGGAUGAAGCUCUUACAUCAGGUGUCACACGUCUGGAAAACAGAUGGGUUGAGCAGUUGUGAUUACAAAUUACUCUCUGUGGAUUACAAUCCUUUAUAUAUCAACAUCACAGU", "bound/input enrichment": "0.504 ratio"}
{"Strand": "AAAUUUAUUUCAUGCCCUGGACUCCCUAUCGUACCGAUACUUUAAUAGAAUAUGCUUCUUUAGAAGAUUUCCAAAACAGUCGCCAAACAACAACAUAUAAACUUCCAAAUCGAGUAGAUG", "bound/input enrichment": "1.35 ratio"}
{"Strand": "UUGUCUCGGGAGAGCCGGCCGGGGUUGGCAUUCAUCCUGCUCGCCCUUUGCUUUAUUUUCCUCGGGGCUGGGGUGAGGGUCGCGGCGCCCACUGAGCCUGAGGCGCGAGCUUGUGUGAUU", "bound/input enrichment": "0.437 ratio"}
{"Strand": "UAACUGAGUGCUUAAGCUGCCAAUAGUUAUGCUAUUUAUUUGUGUCUGUAAGUUUGUACAUAGUAAUGCCAGCCUUGUUGCUGAAUUUUUUAUUUGGGGGUGGGGGGAUGAGUUUGAAUU", "bound/input enrichment": "1.57 ratio"}
{"Strand": "AAAAACCCCGAUUUUAGAUGUGAUAUCUAGGCUUUCAUUCCAGUUUGUUUUUGUCUUGUUUAGAUACCAAUCUUUUAAAUUCUUGCAUUUUAGUAAGAAAGCUACCUUUUUAUGGAUGUU", "bound/input enrichment": "0.627 ratio"}
{"Strand": "UGAGUGUUGGAAGAAUAGCAUAUGAGGUUGUGGUCAAAAAGUAGGAGCAGUUGGGGAGAGAAGAUACACGUAUCAACAGCCAGGUGGUAAAAGGUGCAGAUGAAGGUCAUUGAAACUCAA", "bound/input enrichment": "0.495 ratio"}
{"Strand": "UUACAGUCAUUGAUGGACUCUAUUUUUUUAUUAUUACUUGGACCUUGGUCGUUUUUAUACUAGCAAAAAUGUCUUGUUUUAAUUUGUGUUUUUUUGGGGGGUGGGGGUGGGAGGGAUUGA", "bound/input enrichment": "2.37 ratio"}
{"Strand": "AGAAAAUUUUAACCAAGAACCUGAAGGUAGAAAUACAGGACCAUGGUUAUCUUCCUCACUUAGAAAUAGAUGCACACCUUUGUUUUCUCGAAGGAGACGAGAGGGACGAGAUGAAUCUUC", "bound/input enrichment": "0.965 ratio"}
{"data": "Set 3", "SMILES": "CS(=O)(=O)NCC[C@H](NC(=O)c1cncc2c1cnn2-c1ccc(F)cc1)c1ccnc(S(C)(=O)=O)c1", "observed": "cell-free assay", "technique": "competition with immobilised ligand", "tested at": "1 µM"}
{"target": "STK16 (Homo sapiens, UniProt O75716)", "remaining binding [%]": 99}
{"target": "CSNK1D (Homo sapiens, UniProt P48730)", "remaining binding [%]": 100}
{"target": "SIK2 (Homo sapiens, UniProt Q9H0K1)", "remaining binding [%]": 100}
{"data": "Set 4", "target": "Focal adhesion kinase 1 (PTK2, Homo sapiens, UniProt Q05397)", "observed": "enzyme activity", "action": "inhibitor", "tested at": "0.5 µM", "relative to": "control", "UniProt Q05397, sequence (whole entry, looked up)": "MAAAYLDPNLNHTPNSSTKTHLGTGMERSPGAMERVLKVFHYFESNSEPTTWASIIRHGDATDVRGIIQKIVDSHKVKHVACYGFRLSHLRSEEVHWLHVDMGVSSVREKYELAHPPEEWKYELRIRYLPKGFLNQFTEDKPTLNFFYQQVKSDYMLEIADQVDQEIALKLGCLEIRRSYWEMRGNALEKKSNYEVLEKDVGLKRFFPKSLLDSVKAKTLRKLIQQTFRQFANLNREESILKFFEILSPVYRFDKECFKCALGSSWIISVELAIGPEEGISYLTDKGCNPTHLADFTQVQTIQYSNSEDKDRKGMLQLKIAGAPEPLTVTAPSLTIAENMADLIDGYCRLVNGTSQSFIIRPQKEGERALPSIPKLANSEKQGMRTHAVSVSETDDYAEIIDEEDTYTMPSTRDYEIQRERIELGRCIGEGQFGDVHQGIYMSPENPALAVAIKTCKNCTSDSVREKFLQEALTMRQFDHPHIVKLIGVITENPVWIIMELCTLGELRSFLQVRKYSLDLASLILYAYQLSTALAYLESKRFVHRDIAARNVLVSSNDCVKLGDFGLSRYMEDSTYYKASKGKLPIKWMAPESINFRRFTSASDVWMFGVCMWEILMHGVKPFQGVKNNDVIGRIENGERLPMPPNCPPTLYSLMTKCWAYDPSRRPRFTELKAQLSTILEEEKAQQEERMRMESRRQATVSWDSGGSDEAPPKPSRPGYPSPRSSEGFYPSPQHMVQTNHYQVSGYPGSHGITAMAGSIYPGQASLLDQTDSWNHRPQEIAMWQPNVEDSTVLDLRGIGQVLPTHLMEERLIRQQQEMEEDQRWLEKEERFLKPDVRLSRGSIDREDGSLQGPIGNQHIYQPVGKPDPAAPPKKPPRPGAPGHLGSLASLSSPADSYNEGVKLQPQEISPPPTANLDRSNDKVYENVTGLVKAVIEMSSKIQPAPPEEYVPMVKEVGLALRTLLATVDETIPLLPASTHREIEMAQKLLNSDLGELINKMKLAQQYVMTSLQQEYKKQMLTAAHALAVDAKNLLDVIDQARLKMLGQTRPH"}
{"SMILES": "Nc1ncnc2n[nH]c(Nc3ccc(F)cc3)c12", "remaining activity [%]": 103}
{"SMILES": "O=S(=O)(c1cccc2cnccc12)N1CCCNCC1", "remaining activity [%]": 93.9}
{"SMILES": "COc1ccc(CNC(=O)Nc2ncc([N+](=O)[O-])s2)cc1", "remaining activity [%]": 101}
{"SMILES": "Oc1ccc(-c2nc(-c3ccncc3)c(-c3ccc(F)cc3)[nH]2)cc1", "remaining activity [%]": 96.9}
{"SMILES": "CCOC(=O)c1c(C)[nH]c(/C=C2\\C(=O)Nc3ccccc32)c1C", "remaining activity [%]": 93}
{"SMILES": "COc1ccc(C(=O)Nc2sc3c(c2C(N)=O)CCCC3)cc1OC", "remaining activity [%]": 116}
{"SMILES": "Cn1c2ccccc2c2c3c(c4c5ccccc5n(CCC#N)c4c21)CNC3=O", "remaining activity [%]": 77}
{"SMILES": "CN(C)c1ccc(C=C2C(=O)Nc3ccccc32)cc1", "remaining activity [%]": 104}
{"SMILES": "O=C1NC(=O)C(c2cn(CCCO)c3ncccc23)=C1c1cnccn1", "remaining activity [%]": 101}
{"SMILES": "O=C(O)c1ccc2c3c1cccc3c(=O)n1c3ccccc3nc21", "remaining activity [%]": 97.5}
{"SMILES": "O=c1c2ccccc2[nH]c(=S)n1CCN1CCC(=C(c2ccc(F)cc2)c2ccc(F)cc2)CC1", "remaining activity [%]": 105}
{"SMILES": "Nc1[nH]nc2nc3ccccc3nc12", "remaining activity [%]": 94.7}
{"SMILES": "CO[C@H]1C[C@@H]2CC[C@@H](C)[C@@](O)(O2)C(=O)C(=O)N2CCCC[C@H]2C(=O)O[C@H]([C@H](C)C[C@@H]2CC[C@@H](O)[C@H](OC)C2)CC(=O)[C@H](C)/C=C(\\C)[C@@H](O)[C@@H](OC)C(=O)[C@H](C)C[C@H](C)/C=C/C=C/C=C/1C", "remaining activity [%]": 103}
{"SMILES": "Cn1sc(=O)n(Cc2ccccc2)c1=O", "remaining activity [%]": 99.5}
{"SMILES": "Cc1cccc(-c2[nH]c(C(C)(C)C)nc2-c2ccc3c(c2)OCO3)n1", "remaining activity [%]": 98.1}
{"note": "For quick reference, copied from above (set 3):"}
{"target": "STK16 (Homo sapiens, UniProt O75716)", "remaining binding [%]": 99}
{"target": "CSNK1D (Homo sapiens, UniProt P48730)", "remaining binding [%]": 100}
{"target": "SIK2 (Homo sapiens, UniProt Q9H0K1)", "remaining binding [%]": 100}
